Published values of several laboratories.
Parts stem from different laboratories: compare values within a part only.

Series 1 — method: competition protein-binding microarray; molecule type: double-stranded DNA, one strand shown; medium: in vitro; tested at: 2 µM; together with: Pho4 competitor, 0.05 µM; direction: higher = stronger binding; all sequences stand within: … GTCTTGATTCGCTTGACGCTGCTG
Target: Centromere-binding protein 1, full length, His-tagged (CBF1, Saccharomyces cerevisiae, UniProt P17106, residues 1-351)
UniProt P17106, sequence (whole entry, looked up): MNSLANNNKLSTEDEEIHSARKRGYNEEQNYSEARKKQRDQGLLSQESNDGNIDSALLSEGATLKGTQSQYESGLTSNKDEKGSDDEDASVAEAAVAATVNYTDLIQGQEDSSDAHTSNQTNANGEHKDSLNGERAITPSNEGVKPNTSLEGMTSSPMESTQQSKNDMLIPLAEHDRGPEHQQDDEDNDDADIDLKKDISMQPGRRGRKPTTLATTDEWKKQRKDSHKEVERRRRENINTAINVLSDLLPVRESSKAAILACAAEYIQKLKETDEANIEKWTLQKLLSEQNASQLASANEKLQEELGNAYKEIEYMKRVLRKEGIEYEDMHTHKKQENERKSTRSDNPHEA
Notes: whole 60-bp probe, lowest competitor level
The fluorescence intensity of `AGTCAAGTAAGGCGTCACCTGATTCTACTCCGGCCC` is reported as 686 a.u.
`CTAGAGCCACAAAAGCACGTGCTTTGGGTGCTTTGG` has a fluorescence intensity of 1840 a.u.
`CGTCCTAGTGATTGGTTGGTGGGTGCCATGAGGAAG` gave a fluorescence intensity of 71 a.u.
The fluorescence intensity of `TGTTATTATTGACAACATGTGTAAGTTGGTCGAAGA` is reported as 129 a.u.
`TGGGGATGATGATAGTCCGTGACGGTTGCCAGGGAA` has a fluorescence intensity of 68 a.u.
`TGTCCAAGTCTGATCCATGTGTCTTGACCTATATGT` has a fluorescence intensity of 78.9 a.u.
`ACCCAGTTCACAAGCACCGTGAAGCTAGAGGTTTGA` has a fluorescence intensity of 61.1 a.u.
For `TTTGACCTCTTCGACCACGTGTGTTAGCTGGTCATT`, the fluorescence intensity was 1210 a.u.

Series 2 — method: universal PBM; molecule type: double-stranded DNA, one strand shown; medium: in vitro; tested at: 600 nM; direction: higher = stronger binding
Target: Sal-like protein 4, full length isoform A (SALL4, Homo sapiens, UniProt Q9UJQ4, residues 1-1053)
UniProt Q9UJQ4, sequence (whole entry, looked up): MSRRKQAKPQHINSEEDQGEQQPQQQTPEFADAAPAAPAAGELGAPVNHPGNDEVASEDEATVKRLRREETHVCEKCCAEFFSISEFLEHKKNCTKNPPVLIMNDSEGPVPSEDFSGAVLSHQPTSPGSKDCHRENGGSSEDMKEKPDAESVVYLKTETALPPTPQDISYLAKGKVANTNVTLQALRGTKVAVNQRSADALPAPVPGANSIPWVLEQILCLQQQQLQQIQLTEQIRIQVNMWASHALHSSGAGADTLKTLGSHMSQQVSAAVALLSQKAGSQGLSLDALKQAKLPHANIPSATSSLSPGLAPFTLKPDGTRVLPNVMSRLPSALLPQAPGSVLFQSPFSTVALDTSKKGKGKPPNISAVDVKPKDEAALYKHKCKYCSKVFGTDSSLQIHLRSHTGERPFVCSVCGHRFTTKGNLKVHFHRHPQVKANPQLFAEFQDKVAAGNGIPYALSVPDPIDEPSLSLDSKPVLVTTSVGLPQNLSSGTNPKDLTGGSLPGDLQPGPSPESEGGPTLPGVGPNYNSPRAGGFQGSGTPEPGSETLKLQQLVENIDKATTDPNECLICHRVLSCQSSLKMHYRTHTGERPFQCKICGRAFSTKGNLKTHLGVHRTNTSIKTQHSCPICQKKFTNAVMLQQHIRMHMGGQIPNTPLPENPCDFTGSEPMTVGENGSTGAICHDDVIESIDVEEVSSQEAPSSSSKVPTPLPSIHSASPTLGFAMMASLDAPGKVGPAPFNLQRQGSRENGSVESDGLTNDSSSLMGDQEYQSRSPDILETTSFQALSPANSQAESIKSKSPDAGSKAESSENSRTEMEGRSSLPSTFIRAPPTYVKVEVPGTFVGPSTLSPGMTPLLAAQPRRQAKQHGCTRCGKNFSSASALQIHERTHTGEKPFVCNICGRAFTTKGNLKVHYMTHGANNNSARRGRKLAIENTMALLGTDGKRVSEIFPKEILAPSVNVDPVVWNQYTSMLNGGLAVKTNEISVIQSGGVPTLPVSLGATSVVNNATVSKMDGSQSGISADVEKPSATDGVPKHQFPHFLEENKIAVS
Notes: 8-mer, flanks averaged, mean of replicates
The E-score of `CGCCAATC` is reported as -0.153.
With `CACGAAGC` the E-score was -0.25.
With `ATAGGGTG` the E-score was -0.0514.
`CCCCGCAG` gave an E-score of -0.348.
For `ATTCCCAA`, the E-score was 0.312.
For `ACGCCTGG`, the E-score was -0.265.
`AACGCTAC` gave an E-score of 0.0336.
With `TCGTGTCA` the E-score was -0.0711.
For `GCCTGTGA`, the E-score was -0.202.

Series 3 — method: protein-binding microarray; molecule type: double-stranded DNA, one strand shown; medium: in vitro; tested at: 250 nM; notes: 60-bp whole probe; together with: salmon DNA 0.4 mg/ml; baseline: random background probes; direction: higher = stronger binding; all sequences stand within: GCCTAGCAC … GTCTTGATTCGCTTGACGCTGCTG
Target: Interferon regulatory factor 7, full length, phosphomimetic (IRF7, Homo sapiens, UniProt Q92985, residues 1-503, S101K/S471D/S472D/S475D/S476D/S477D/S483D/S484D/S487D)
Construct (chain): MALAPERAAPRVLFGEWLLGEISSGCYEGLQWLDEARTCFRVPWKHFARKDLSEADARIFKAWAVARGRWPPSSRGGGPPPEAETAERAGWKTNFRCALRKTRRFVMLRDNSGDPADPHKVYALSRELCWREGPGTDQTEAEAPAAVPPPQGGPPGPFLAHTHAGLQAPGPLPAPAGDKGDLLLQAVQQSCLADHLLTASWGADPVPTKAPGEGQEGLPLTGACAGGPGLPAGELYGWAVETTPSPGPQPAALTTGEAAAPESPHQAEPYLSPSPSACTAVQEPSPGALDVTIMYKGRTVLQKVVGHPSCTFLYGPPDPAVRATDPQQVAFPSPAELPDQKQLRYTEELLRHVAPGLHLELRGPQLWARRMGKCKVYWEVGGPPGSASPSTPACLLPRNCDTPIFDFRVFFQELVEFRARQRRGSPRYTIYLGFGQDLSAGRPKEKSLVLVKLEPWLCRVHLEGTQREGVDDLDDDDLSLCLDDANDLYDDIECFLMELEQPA
`ACCTGTATATCTTCAGCGGGGTGCTAG` has a log fluorescence of -0.11 z-score.
For `TTAGATTTCCTTTCCCTTTAGTGCTAG`, the log fluorescence was 2.11 z-score.
The log fluorescence of `CCTTATCCCTAATCTCAGCCTGTGCTA` is reported as 1.24 z-score.
`TTAGGTTTCGGTTCCGGTTCGTGCTAG` has a log fluorescence of 12.9 z-score.
`CTAGGACTGGGTTTCGGTTAGTGCTAG` has a log fluorescence of 6.92 z-score.
`TCAAGTTTTCCTCTGTCACTGTGCTAG` has a log fluorescence of 1.47 z-score.
`GTCGGACTGGGACTGGGGACGTGCTAG` has a log fluorescence of -0.424 z-score.
`GACGGTTTCGGCACTGGGGACGTGCTA` has a log fluorescence of 1.65 z-score.
The log fluorescence of `CTAGGTATCGACTTTCGGTTAGTGCTA` is reported as 3.59 z-score.
`TTAAGTCTCCTTCTCCTTTAGTGCTAG` gave a log fluorescence of 0.615 z-score.

Other studies, line by line
The fold induction of `PhoQ, residues 284 288 289 292 302 303 TVTVVA` is reported as 0.869 (PhoP, residues 12 14 15 18 19 AQCLL (Escherichia coli, UniProt P23836); Sort-seq, item: YFP reporter; E. coli; PhoQ-PhoP variant library, together with: 10 µM Mg2+; baseline: high Mg2+ state, higher = stronger signaling).

Repeated from above (series 3):
`CTAGGACTGGGTTTCGGTTAGTGCTAG` has a log fluorescence of 6.92 z-score.
`TCAAGTTTTCCTCTGTCACTGTGCTAG` has a log fluorescence of 1.47 z-score.
